{"data": "Published values collected from several papers", "note": "Compare with care: the assays were run in different laboratories. Numbers after ± are the reported error."}
{"Structure (SMILES)": "NNC(=O)c1ccncc1", "tested on": "Mycobacterium tuberculosis", "system": "H37Rv rpoB S450L mutant", "endpoint": "MIC", "value": "0.06 µg/mL"}
{"Structure (SMILES)": "CO[C@H]1/C=C/O[C@@]2(C)Oc3c(C)c(O)c4c(O)c(c(/C=N/N5CCN(C)CC5)c(O)c4c3C2=O)NC(=O)/C(C)=C\\C=C\\[C@H](C)[C@H](O)[C@@H](C)[C@@H](O)[C@@H](C)[C@H](OC(C)=O)[C@@H]1C", "tested on": "Mycobacterium tuberculosis", "test": "Alamar blue", "system": "MDR 210", "endpoint": "MIC", "value": "2.43 µM"}
{"Structure (SMILES)": "CN[C@@H]1[C@H](O)[C@H](NC)[C@H]2O[C@@]3(O)C(=O)C[C@@H](C)O[C@H]3O[C@@H]2[C@H]1O", "tested on": "Mycobacterium tuberculosis", "system": "MDR clinical isolates", "endpoint": "MIC", "value": "> 64 µg/mL"}
{"Structure (SMILES)": "CCC(CC)[C@H](NC(C)=O)[C@@H]1[C@H](O)[C@@H](C(=O)O)C[C@H]1N=C(N)N", "tested on": "neuraminidase (Influenza B virus, UniProt A0A1S5RAG6)", "endpoint": "IC50", "value": "400 ± 40 pM"}
{"Structure (SMILES)": "CC[C@@H](CO)NCCN[C@@H](CC)CO", "tested on": "Mycobacterium tuberculosis", "test": "Alamar blue", "system": "MDR 210", "endpoint": "MIC", "value": "19.6 µM"}
{"Structure (SMILES)": "CS(=O)(=O)Nc1ncn(-c2cc(F)c(COc3ccc(OS(=O)(=O)F)cc3)c(F)c2)n1", "tested on": "Mycobacterium tuberculosis", "setting": "10 x MIC", "endpoint": "resistance mutation frequency", "value": "1.76e-09 mutants per cell"}
{"Structure (SMILES)": "NNC(=O)c1ccncc1", "tested on": "Mycobacterium tuberculosis", "system": "H37Rv", "endpoint": "MIC", "value": "0.4 µM"}
{"Structure (SMILES)": "Oc1cc(Cl)ccc1Oc1ccc(Cl)cc1Cl", "tested on": "Mycobacterium tuberculosis", "system": "mc2 5855", "endpoint": "MIC", "value": "25 µg/mL"}
{"Structure (SMILES)": "Cc1cn(C2CCN(Cc3cccc(Oc4ccccc4)n3)CC2)c(=O)[nH]c1=O", "tested on": "Mycobacterium tuberculosis", "system": "H37Rv Rv1258c (tap) knockout", "endpoint": "MIC", "value": "> 250 µg/mL"}
{"Structure (SMILES)": "NC(=S)NN=Cc1ccc(OC(=O)CN2C(=O)CSC2=O)c(Cl)c1", "tested on": "Mycobacterium tuberculosis", "test": "Alamar blue", "system": "MDR 210", "endpoint": "MIC", "value": "41.4 µM"}
{"Structure (SMILES)": "Cc1cn(C2CCN(Cc3ccnc(Oc4cccc(Cl)c4)c3)CC2)c(=O)[nH]c1=O", "tested on": "Mycobacterium tuberculosis", "system": "H37Rv Rv3065 (mmr) knockout", "endpoint": "MIC", "value": "31.2 µg/mL"}
{"Structure (SMILES)": "O=C1c2c(O)c(=O)ccn2N([C@@H]2c3ccccc3SCc3c2ccc(F)c3F)[C@@H]2COCCN12", "tested on": "Influenza A virus", "test": "viral replication, plaque reduction", "system": "A(H1N1)pdm09 rg-A/California/04/2009", "setting": "mean", "endpoint": "EC50", "value": "190 ± 20 pM"}
{"Structure (SMILES)": "NC(=O)c1cccnc1", "tested on": "Nan-Iav channel Halyomorpha halys", "test": "ion current", "system": "HEK-293T", "setting": "concentration not given", "endpoint": "current density", "value": "130 pA/pF"}
{"Structure (SMILES)": "COC(=O)C=C1SC(=NN=Cc2ccc(OC(=O)CN3C(=O)CSC3=O)cc2)NC1=O", "tested on": "Mycobacterium tuberculosis", "test": "Alamar blue", "system": "MDR 210", "endpoint": "MIC", "value": "31.6 to 45.7 µM"}
{"Structure (SMILES)": "CO[C@H]1/C=C/O[C@@]2(C)Oc3c(C)c(O)c4c(O)c(c(/C=N/N5CCN(C)CC5)c(O)c4c3C2=O)NC(=O)/C(C)=C\\C=C\\[C@H](C)[C@H](O)[C@@H](C)[C@@H](O)[C@@H](C)[C@H](OC(C)=O)[C@@H]1C", "tested on": "Mycobacterium tuberculosis", "system": "H37Rv rpoB S450L mutant", "endpoint": "MIC", "value": "> 1 µg/mL"}
{"Structure (SMILES)": "NNC(=O)c1ccncc1", "tested on": "Mycobacterium tuberculosis", "setting": "4 x MIC", "endpoint": "resistance mutation frequency", "value": "3.97e-06 mutants per cell"}
{"Structure (SMILES)": "O=[N+]([O-])c1cn2c(n1)OC[C@@H](OCc1ccc(OC(F)(F)F)cc1)C2", "tested on": "Mycobacterium tuberculosis", "system": "H37Rv gyrA D94K mutant", "endpoint": "MIC", "value": "0.06 µg/mL"}
{"Structure (SMILES)": "[Ca+2]", "tested on": "Halyomorpha halys", "test": "inward current, inhibitor, electrophysiology", "setting": "concentration not given, D721A D731A in Nan", "endpoint": "inhibition", "value": "49.9%"}
{"note": "Some of these lines once more:"}
{"Structure (SMILES)": "CO[C@H]1/C=C/O[C@@]2(C)Oc3c(C)c(O)c4c(O)c(c(/C=N/N5CCN(C)CC5)c(O)c4c3C2=O)NC(=O)/C(C)=C\\C=C\\[C@H](C)[C@H](O)[C@@H](C)[C@@H](O)[C@@H](C)[C@H](OC(C)=O)[C@@H]1C", "tested on": "Mycobacterium tuberculosis", "test": "Alamar blue", "system": "MDR 210", "endpoint": "MIC", "value": "2.43 µM"}
{"Structure (SMILES)": "[Ca+2]", "tested on": "Halyomorpha halys", "test": "inward current, inhibitor, electrophysiology", "setting": "concentration not given, D721A D731A in Nan", "endpoint": "inhibition", "value": "49.9%"}
